Published values pooled from the literature.
Parts stem from different laboratories: compare values within a part only.

Block 1
Target: Histone acetyltransferase KAT6A, both winged helices, GST fusion (KAT6A, Homo sapiens, UniProt Q92794, residues 1-181)
Method: protein binding microarray
Form: double-stranded DNA, one strand shown
Matrix: in vitro
Tested at: not given
Setting: 8-mer, flanks averaged, mean of 2 arrays, mostly near background
Baseline: not given
Reading: higher = stronger binding
Quantity: E-score
Residues (chain): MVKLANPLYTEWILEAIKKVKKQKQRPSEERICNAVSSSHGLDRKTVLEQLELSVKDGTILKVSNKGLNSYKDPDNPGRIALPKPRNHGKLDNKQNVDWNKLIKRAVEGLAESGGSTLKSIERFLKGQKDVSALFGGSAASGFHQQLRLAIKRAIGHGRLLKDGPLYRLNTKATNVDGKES
Strand = AAACTATC; value = -0.00663
Strand = AGCGCCCA; value = 0.0262
Strand = CAATGACA; value = -0.152
Strand = ATCCACCA; value = -0.235
Strand = CATCACGC; value = 0.14
Strand = TAGGTGCA; value = -0.286
Strand = ACTGGGGA; value = -0.199
Strand = CATTGGGA; value = -0.253
Strand = AGCCCACT; value = -0.195
Strand = AACTGTCG; value = 0.0289
Strand = CAGCCCCA; value = -0.0825
Strand = CAGATGAC; value = 0.00742
Strand = AAAGTATG; value = -0.131
Strand = ATCCTCCG; value = 0.00235
Strand = ACTTGGGA; value = -0.163

Block 2
Target: RNA binding protein fox-1 homolog 2, RRM domain, GST-SBP tag (RBFOX2, Homo sapiens, UniProt O43251-10, residues 100-194)
Method: RNA Bind-n-Seq
Form: RNA
Matrix: in vitro
Tested at: 365 nM
Setting: natural RNA segment, single round, ends assumed
Baseline: no-protein control
Reading: higher = stronger binding
Quantity: RBNS enrichment (R)
Shared flanks, not repeated: GGGAGUUCUACAGUCCGACGAUC … UGGAAUUCUCGGGUGCCAA
Target sequence (chain): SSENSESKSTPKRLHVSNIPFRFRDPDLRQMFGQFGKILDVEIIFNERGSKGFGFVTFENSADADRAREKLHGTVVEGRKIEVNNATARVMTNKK
Strand = AGGAAACGAAUGACUAAUAGCAUUAUGAGUCUUAUGUGAAGACAACACUAUUCUAACACAGGAGAUAAUGUACUUGGUACUGUUUAUUCAACUGGGGGAAAAUAAAACUU; value = 0.7
Strand = GUGCCUCACAGGGCCCACUCCCUGCCUAUGCCUCCCUCUUGGGGGGCCGAGGAGGGCGGCUGCUCUGUCAUGAGAAUGUACGGCCCGUGGAUGAUUAACGGGCCUUUUUC; value = 0.514
Strand = GCGCCCCUCAGAAAGCCAUGGCAGCCAUGGAUGGCCAGAGUGAGACUGGACGCCACUGGGCUGGAGCAGGGGGCAGUCCAGGGUUGUGGGGACACAGAUGAGGGCUGGGA; value = 1.27
Strand = UAAGAGGUGACCCUGUGUUUUUUGUGAUAUUGAGGCAUUCAUACAGAGCUGCAGUUAGACGGGGUUACGGGGGCUAAAAGCAGAAAAAAAAUUCCAUUUCAUCGGGAUGG; value = 0.697
Strand = CAUUUUAGAUUUUAGGUGACUCAUAAUUCCCAUUCACUUAGCCUAUCAGAAAAGUCAUUGGCAGACAUAUAUGUCCUUGAACCUUUUUUAUUUGUGUGGAUUCUGCUCAU; value = 0.372
Strand = CAAGAACGGUAUGCCAGUCAGGUCCUGGAAGUAAAAUGGAGGCACAAUAUAGCACUGACUGAGUUGUAAAGCCUCCUGCCUGGAGACUUCAGUUAUAGCUGUAAUAAUUA; value = 0.718
Strand = UUUAUUAAACACUGUCUAGAAAAAGAAAGUGAAGCUGAGAACUCUUCCUUUAUUGUGCAUUUAUAUUUUCUGCUGAAUUCCGGUAGUUCCCUUUAAAGUCAUGUUGACUA; value = 1.08
Strand = ACAAAGCCUCUGAAAGAUGCAUCAUCUCUUCCUCACACCCAUUUAGUGGGGGAUGGGUCCUCUAGACUUGAGGGGCUACCCUGGGAAGCUGCCGUAGCUUCAGCCAGGCA; value = 0.319

Block 3
Target: Ras GTPase-activating protein-binding protein 1, full length (G3BP1, Homo sapiens, UniProt Q13283)
Sequence of UniProt Q13283 (whole entry, looked up): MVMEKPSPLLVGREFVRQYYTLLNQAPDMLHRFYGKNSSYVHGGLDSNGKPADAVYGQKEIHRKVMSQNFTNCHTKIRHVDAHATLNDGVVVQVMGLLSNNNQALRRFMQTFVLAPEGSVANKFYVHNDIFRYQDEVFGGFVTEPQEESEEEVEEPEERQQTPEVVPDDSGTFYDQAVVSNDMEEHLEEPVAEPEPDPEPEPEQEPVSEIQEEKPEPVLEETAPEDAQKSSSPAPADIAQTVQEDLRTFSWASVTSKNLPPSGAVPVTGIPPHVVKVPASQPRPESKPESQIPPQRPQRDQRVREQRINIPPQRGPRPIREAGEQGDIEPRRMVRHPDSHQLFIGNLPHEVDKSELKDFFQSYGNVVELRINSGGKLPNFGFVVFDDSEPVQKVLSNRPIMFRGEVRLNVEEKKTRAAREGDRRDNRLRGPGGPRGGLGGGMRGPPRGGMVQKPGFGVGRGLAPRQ
Method: RNA Bind-n-Seq
Form: RNA
Matrix: in vitro
Tested at: 200 nM
Setting: whole 134-nt RNA, ends assumed
Together with: 150 mM KCl
Baseline: input library
Reading: higher = stronger binding
Quantity: log2 enrichment
Shared flanks, not repeated: GGGAGUUCUACAGUCCGACGAUC … UGGAAUUCUCGGGUGUCAAGG
Strand = CAAGUCCUGUGCUACACAUCGUAUGUACCGAAUCGGGGAGGGGUUUGGGGUGGGGAAAGUAUUAUGUUACGCCGUUCGGAUCUGCACUUC; value = 1.52
Strand = CUCAAGUCCUGUGCUACACAUCGUAUGUACCGAAUCGGGAAGGGGAAGGAAGGGAAAGUAUUAUGUUACGCCGUUCGGAUCUGCACUUCC; value = -0.15
Strand = UCCUGUGCUACACAUCGUAUGUACCGAAUCAAAUUUUUUUAAAUUUAAAUUUUUUUAAAAAAGUAUUAUGUUACGCCGUUCGGAUCUGCA; value = -0.652
Strand = CUCAAGUCCUGUGCUACACAUCGUAUGUACCGAAUCGGGGCCGGGCCGGCCGGAAAGUAUUAUGUUACGCCGUUCGGAUCUGCACUUCCA; value = -0.378
Strand = GCAGGAAGUAAAAACAAAUGGAAAUGAAACGGAUAGUGGCAGGGGUGGGGGUUGCUAAGGAAAGGGUGGGAUGGGAGUGGGUAAAGAGUU; value = 0.96
Strand = GUGGACAACGCGUACUGGCUGUGGACUUUCCAGGGACGCCUCCUGCAGAAGAACAACAAGGACCGCUUCUGCCAGCUGCUGUGGCGGCCC; value = -1
Strand = CCUCAAGUCCUGUGCUACACAUCGUAUGUACCGAAUCGGAAAGGAAAGGAGGAAAGUAUUAUGUUACGCCGUUCGGAUCUGCACUUCCAG; value = -0.00567
Strand = AAGUCCUGUGCUACACAUCGUAUGUACCGAAUCGGGUUUUUGGGUUUGGGAAAGGGAAAGUAUUAUGUUACGCCGUUCGGAUCUGCACUU; value = 0.0282
Strand = GCAGGAAGUAAAAACAAAUGGAAAUGCUUCGGAUAGUGGCAGGGAAAGGGGUUGCUAAGGAAAGGGUGGGAUGGGAGUGGGUAAAGAGUU; value = 0.874

Other studies, line by line
Molecule = PhoQ, residues 284 288 289 292 302 303 SASVAL; target = PhoP, residues 12 14 15 18 19 LHATL (Escherichia coli, UniProt P23836); test = Sort-seq, measured: YFP reporter; system = E. coli; conditions = PhoQ-PhoP variant library, together with: 10 µM Mg2+; scale = baseline: high Mg2+ state, higher = stronger signaling; quantity = fold induction; value = 9.73
